Experimental data collected from several papers.
Each line is one published result; not all experiments were run side by side.
Target: RAC-beta serine/threonine-protein kinase (AKT2, Homo sapiens, UniProt P31751)

| Compound | test | setting | scale | quantity | value |
| --- | --- | --- | --- | --- | --- |
| C=C1CCCCCCCCCC(CO)C1=O (stereo not shown) | cell-free assay, competition with immobilised ligand | 10 µM |  | remaining binding | 100% |
| COc1ccc(NC(=O)Nc2ccc3c(c2)C(=O)N(C(C)CO)CC(C)C(CN(C)Cc2ccc4c(c2)OCO4)O3)cc1 (stereo not shown) | kinase activity, KinaseProfiler | 0.03 µM, species human | reference: control | remaining activity | 107% |
| CNC(=O)C[C@H](Cc1ccc(C#N)cc1)NC(=O)c1cc(-c2ccc(CN[C@H](C)c3ccc(C)cc3)o2)ccc1Cl | enzyme activity, inhibitor | 1 µM |  | activity vs control | 95% |
| CN1CCN(Cc2ccc(NC(=O)c3cccc(C#Cc4cnc(N)c5ncccc45)c3)cc2C(F)(F)F)CC1 | cell-free assay, competition with immobilised ligand | 50 nM |  | remaining binding | 70% |
| O=C=[N][Ru-4]123([n]4c5ccc(O)cc5c5c6c(c7cc(F)c[n+]1c7c54)C(=O)NC6=O)[S+]1CC[S+]2CC[S+]3CC1 (stereo not shown) | enzyme activity | 100 nM, human enzyme, together with: 10 µM ATP | reference: untreated | remaining activity | 90% |
| Cc1cccc(O[C@H]2CCC[C@@H](C(C)CNCc3ccncc3)C2)c1 (relative stereo) | enzyme activity, inhibitor | 10 µM |  | inhibition | -11% |
| C=CC(=O)Nc1cccc(-c2cnc3[nH]cc(C(=O)NC(C)(C)C)c3n2)c1 | kinase activity | 0.1 µM |  | inhibition | 3% |
| CNC(=O)C1CCN(c2cc(C)c(F)cc2NC(=O)c2ccc(-c3cc(O)ccc3C)c(C)c2)CC1 | binding, competition with immobilised ligand | 1 µM |  | remaining binding | 100% |
| Cc1cccc(-c2ccc3nc(NC(=O)C4CCCCC4)nn3c2)c1 | enzyme activity, inhibitor | 10 µM |  | activity vs control | 75% |
| Cc1nc2c(F)cc(-c3nc(Nc4ccc(CNC(=O)CCCCCCC(=O)NO)cc4)ncc3F)cc2n1C(C)C | enzyme activity, inhibitor | 1 µM |  | inhibition | 31% |
| COc1c(Cl)cccc1Nc1c(-c2ccncc2C#C[C@@]2(C)CCCN2C(=O)/C=C/CN(C)C)[nH]c2c1C(=O)NCC2 | binding, competition with immobilised ligand | 3 µM |  | remaining binding | 89% |
| Cc1cccc(-c2ccc3nc(NC(=O)C4CCCO4)nn3c2)c1 (stereo not shown) | enzyme activity, inhibitor | 10 µM |  | activity vs control | 67% |
| NC(=O)C[C@H]1CCc2sc3ncnc(O[C@H]4CC[C@H](N5CCOCC5)CC4)c3c21 | enzyme activity, inhibitor | 10 µM |  | inhibition | 9% |
| CCN1CCN(Cc2ccc(C(=O)Nc3ccc(C)c(NCc4cnc5[nH]ccc5c4OC)c3)cc2C(F)(F)F)CC1 | binding, competition with immobilised ligand | 1 µM |  | remaining binding | 93% |
| Nc1ncc2c(n1)-c1c([nH]c3ccc(C4=CCOCC4)cc13)CCC2 | binding, competition with immobilised ligand | 1 µM |  | remaining binding | 100% |
| CC(=O)N1c2ccc(-c3ccc(CNC(=O)c4cn5cc(-c6cnc(N)nc6)nc(N6CCOCC6)c5n4)cc3)cc2CC[C@@H]1C | KINOMEscan | 10 µM |  | remaining binding | 93% |
| O=c1c(-c2ccc(Cl)c(CN3CCOCC3)c2)coc2cc(O)ccc12 | enzyme activity, inhibitor | 1 µM |  | remaining activity | 95% |
| Nc1nc(Nc2ccccc2)sc1C(=O)c1ccccc1 | enzyme activity, inhibitor | 10 µM |  | remaining activity | 70% |
| C=CC(=O)N1CCc2ccc(-n3c(=O)ccc4cnc5ccc(-c6cnn(C)c6)cc5c43)cc21 | KINOMEscan | 1 µM | reference: DMSO control | remaining binding | 88% |
| COc1cc(Nc2nc(C)cc(-c3cnn4nc(OC)ccc34)n2)cc(C(F)(F)F)c1 | inhibitor | 1 µM | reference: control | remaining activity | 100% |
| CCn1cc(C(=O)O)c(=O)c2c(N)c(F)c(NC3CCCCC3)cc21 | kinase activity | 0.1 µM, together with: ATP at Km |  | inhibition | -1.7% |
| Nc1ncc(-c2cc(-c3cnn(CC(F)(F)F)c3)ncc2F)nc1C(=O)NC1CNCC(F)C1 (stereo not shown) | enzyme activity | 1 µM | reference: DMSO control | remaining activity | 106% |

Excerpt of the above:
| Compound | test | setting | scale | quantity | value |
| --- | --- | --- | --- | --- | --- |
| C=C1CCCCCCCCCC(CO)C1=O (stereo not shown) | cell-free assay, competition with immobilised ligand | 10 µM |  | remaining binding | 100% |
| CNC(=O)C[C@H](Cc1ccc(C#N)cc1)NC(=O)c1cc(-c2ccc(CN[C@H](C)c3ccc(C)cc3)o2)ccc1Cl | enzyme activity, inhibitor | 1 µM |  | activity vs control | 95% |
